Results from different studies.
Lines come from different studies, so protocols differ. Several values in a cell are separate wells, animals, samples, runs or records. ± gives the spread as reported.
UniProt Q02880, sequence (whole entry, looked up): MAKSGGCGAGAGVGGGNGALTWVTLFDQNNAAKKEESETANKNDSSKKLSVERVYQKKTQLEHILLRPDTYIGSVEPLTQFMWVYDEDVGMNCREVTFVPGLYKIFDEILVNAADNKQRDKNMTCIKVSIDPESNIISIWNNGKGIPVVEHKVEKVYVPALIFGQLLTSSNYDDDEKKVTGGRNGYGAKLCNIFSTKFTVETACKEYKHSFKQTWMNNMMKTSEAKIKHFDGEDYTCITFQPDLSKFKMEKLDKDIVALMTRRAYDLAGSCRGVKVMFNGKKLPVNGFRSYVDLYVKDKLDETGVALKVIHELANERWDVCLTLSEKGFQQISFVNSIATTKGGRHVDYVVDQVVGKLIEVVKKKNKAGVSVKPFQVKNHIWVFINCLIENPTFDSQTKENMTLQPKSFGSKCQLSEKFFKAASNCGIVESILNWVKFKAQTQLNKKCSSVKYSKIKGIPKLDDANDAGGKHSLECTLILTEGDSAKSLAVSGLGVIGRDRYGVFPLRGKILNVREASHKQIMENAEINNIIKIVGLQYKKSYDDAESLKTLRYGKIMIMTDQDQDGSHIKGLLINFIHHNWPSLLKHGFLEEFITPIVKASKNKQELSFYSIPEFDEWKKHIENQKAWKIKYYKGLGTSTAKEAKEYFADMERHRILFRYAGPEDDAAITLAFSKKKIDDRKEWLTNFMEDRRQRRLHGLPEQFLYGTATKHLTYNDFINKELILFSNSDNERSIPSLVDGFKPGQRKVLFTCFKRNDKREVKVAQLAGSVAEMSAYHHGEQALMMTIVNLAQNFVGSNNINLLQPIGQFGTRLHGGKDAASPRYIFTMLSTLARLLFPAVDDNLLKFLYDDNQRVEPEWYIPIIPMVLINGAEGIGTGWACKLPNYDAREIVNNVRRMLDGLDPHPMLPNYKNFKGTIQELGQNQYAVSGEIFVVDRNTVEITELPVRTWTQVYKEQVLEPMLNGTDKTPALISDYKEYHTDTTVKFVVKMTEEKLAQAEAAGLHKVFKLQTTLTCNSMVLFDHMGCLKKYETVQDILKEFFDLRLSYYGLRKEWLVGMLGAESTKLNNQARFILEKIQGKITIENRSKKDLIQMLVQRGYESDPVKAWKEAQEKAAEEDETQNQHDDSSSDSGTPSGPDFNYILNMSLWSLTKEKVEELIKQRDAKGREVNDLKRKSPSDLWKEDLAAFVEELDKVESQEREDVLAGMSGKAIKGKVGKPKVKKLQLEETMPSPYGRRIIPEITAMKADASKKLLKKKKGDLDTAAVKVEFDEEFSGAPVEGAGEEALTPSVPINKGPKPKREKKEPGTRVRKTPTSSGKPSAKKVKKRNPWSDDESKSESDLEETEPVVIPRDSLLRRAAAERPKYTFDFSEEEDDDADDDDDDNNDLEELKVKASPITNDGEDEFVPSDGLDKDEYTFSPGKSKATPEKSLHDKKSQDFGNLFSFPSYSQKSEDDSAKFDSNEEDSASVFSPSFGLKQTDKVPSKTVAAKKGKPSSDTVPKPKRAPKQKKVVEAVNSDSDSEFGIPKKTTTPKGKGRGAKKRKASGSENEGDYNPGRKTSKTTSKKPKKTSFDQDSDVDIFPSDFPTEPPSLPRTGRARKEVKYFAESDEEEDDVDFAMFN
UniProt P15145, sequence (whole entry, looked up): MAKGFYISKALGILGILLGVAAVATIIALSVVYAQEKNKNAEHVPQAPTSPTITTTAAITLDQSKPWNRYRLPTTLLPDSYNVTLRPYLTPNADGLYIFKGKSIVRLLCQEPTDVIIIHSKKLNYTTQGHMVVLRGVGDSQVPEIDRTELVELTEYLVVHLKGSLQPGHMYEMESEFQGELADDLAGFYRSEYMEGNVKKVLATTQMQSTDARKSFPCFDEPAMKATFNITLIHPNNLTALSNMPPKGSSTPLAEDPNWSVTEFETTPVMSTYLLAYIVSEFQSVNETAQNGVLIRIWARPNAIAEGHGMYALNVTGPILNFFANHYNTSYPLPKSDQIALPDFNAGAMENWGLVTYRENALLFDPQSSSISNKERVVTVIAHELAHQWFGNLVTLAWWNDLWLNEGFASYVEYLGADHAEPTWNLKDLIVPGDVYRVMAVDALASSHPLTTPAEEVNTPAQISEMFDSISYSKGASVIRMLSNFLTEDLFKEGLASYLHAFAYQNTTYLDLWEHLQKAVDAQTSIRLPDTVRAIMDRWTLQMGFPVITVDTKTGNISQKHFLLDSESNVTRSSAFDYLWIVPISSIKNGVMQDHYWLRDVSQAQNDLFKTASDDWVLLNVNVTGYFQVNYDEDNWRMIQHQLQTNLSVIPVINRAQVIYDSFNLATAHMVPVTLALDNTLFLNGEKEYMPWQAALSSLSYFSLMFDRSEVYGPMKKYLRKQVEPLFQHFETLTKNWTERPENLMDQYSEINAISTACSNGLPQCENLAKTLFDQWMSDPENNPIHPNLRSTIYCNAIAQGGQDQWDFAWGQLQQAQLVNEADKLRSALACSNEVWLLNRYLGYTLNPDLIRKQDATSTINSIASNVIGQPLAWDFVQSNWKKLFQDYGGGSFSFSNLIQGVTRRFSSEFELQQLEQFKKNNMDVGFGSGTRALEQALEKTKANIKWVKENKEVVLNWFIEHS
UniProt P0ABQ4, sequence (whole entry, looked up): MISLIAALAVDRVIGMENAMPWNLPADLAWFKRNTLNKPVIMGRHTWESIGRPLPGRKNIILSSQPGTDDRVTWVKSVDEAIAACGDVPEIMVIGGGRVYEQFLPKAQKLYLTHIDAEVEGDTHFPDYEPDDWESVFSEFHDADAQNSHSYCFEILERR
UniProt Q8A1G0, sequence (whole entry, unmodified, looked up): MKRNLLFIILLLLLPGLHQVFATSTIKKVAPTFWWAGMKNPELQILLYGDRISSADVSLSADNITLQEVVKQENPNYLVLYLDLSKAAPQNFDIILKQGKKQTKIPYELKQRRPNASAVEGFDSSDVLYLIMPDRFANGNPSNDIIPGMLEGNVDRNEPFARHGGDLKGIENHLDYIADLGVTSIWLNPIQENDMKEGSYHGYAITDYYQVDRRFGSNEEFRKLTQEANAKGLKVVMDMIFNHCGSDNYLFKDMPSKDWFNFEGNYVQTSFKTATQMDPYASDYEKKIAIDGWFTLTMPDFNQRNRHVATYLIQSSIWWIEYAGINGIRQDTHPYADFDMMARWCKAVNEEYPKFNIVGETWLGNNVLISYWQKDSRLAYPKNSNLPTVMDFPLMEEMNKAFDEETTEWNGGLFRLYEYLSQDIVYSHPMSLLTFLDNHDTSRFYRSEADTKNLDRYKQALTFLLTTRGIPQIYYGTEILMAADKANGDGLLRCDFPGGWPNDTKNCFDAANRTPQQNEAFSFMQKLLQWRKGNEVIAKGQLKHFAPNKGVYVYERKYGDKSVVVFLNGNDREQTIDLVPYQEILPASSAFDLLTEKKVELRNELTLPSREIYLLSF

Compound	target or system	test	test system	setting	how to read	measurement	result
COc1cc([C@@H]2c3cc4c(cc3[C@@H](O[C@@H]3O[C@@H]5CO[C@@H](C)O[C@H]5[C@H](O)[C@H]3O)[C@H]3COC(=O)[C@H]23)OCO4)cc(OC)c1O	TOP2B (Homo sapiens, UniProt Q02880)	decatenation	–	250 µM	–	mean decatenated DNA	39.9% and 40.3%
Fc1ccccc1Cc1nc(-c2nc(C(F)(F)F)n[nH]2)cn2ccnc12	–	–	healthy human subjects, both sexes	oral, 10 mg, fed	–	subjects with postural dizziness	7.7%
Nc1nc(N)c(-c2cccc(C(F)(F)F)c2)c(Cc2cccc(C(F)(F)F)c2)n1	folA (Escherichia coli, UniProt P0ABQ4)	differential scanning fluorimetry	–	estimate from thermal shift	–	Kd	5200 ± 1300 nM
O=C(NNC(=NS(=O)(=O)c1ccc(-n2nc(C(F)(F)F)cc2-c2cccs2)cc1)N1CCCC1)c1ccc(Cl)cc1	Aminopeptidase N (ANPEP, Sus scrofa, UniProt P15145)	enzyme activity	–	3 µM, 30 min preincubation, diluted 10-fold, unit not given	reference: untreated	remaining activity	0.974 ± 0.011
O=C[C@@H](O)[C@@H](O)[C@H](O)[C@H](O)COP(=O)(O)O	uncharacterized protein (Bacteroides thetaiotaomicron, UniProt Q8A183)	activator, phosphate release	–	concentration not given, together with: Mg2+	–	phosphatase activity	active
N#CCC1CCN(c2nc(Nc3ccc(N4CCC(O)CC4)cc3)c3c(=O)[nH]ncc3n2)CC1	–	Olink multiplex, item: CD163	human, serum	20 mg, day 15, unit not given	reference: placebo	serum level change	-1.18
COC(=O)Nc1c(N)nc(-c2nn(Cc3ccccc3F)c3ncc(F)cc23)nc1N	–	–	humans, plasma	10 mg once daily, phase I DDI study, together with: warfarin	–	Cmax at steady state	360 ng/mL
O=[N+]([O-])c1ccc(O[C@H]2O[C@H](CO)[C@@H](O)[C@H](O)[C@@H]2O)cc1	Beta-mannosidase (Bacteroides thetaiotaomicron, UniProt Q8AAK6)	substrate, absorbance	–	pH 5.6, 37 °C, together with: p-nitrophenyl β-D-mannopyranoside 0.125-2 mM	–	kcat	67 ± 5 s⁻¹
NC(=O)c1ccc(-n2ccnc2)cc1	Adenosylmethionine-8-amino-7-oxononanoate aminotransferase (Mycobacterium tuberculosis, UniProt P9WQ81)	thermal stability, differential scanning fluorimetry	–	5 mM, holo enzyme	reference: DMSO	ΔTm	4.1 ± 0.2 °C
O=P(O)(O)OC1O[C@H](CO)[C@@H](O)[C@H](O)[C@@H]1O (stereo partly shown)	uncharacterized protein (Bacteroides thetaiotaomicron, UniProt Q8A4G9)	activator, phosphate release	–	concentration not given, together with: Mg2+	–	phosphatase activity	inactive
C[C@H]1O[C@H](O[C@H]2[C@H](O)[C@@H](O)[C@@H](O[C@H]3[C@H](O)[C@@H](O)C(O)O[C@@H]3CO)O[C@@H]2CO)[C@H](O)[C@@H](O)[C@@H]1N[C@H]1C=C(CO)[C@@H](O)[C@H](O)[C@H]1O (stereo partly shown)	susA (Bacteroides thetaiotaomicron, UniProt Q8A1G0)	uncompetitive inhibitor	–	pH 7.0, together with: pNP-G6 substrate	–	Ki	94.7 ± 6.9 nM
O=P(O)(O)OC[C@H]1OC(O)[C@H](O)[C@@H](O)[C@@H]1O (stereo partly shown)	uncharacterized protein (Bacteroides thetaiotaomicron, UniProt Q8A183)	activator, phosphate release	–	concentration not given, together with: Mg2+	–	phosphatase activity	active
CO/N=C(\C(=O)N[C@@H]1C(=O)N2C(C(=O)O)=C(COC(C)=O)CS[C@H]12)c1csc(N)n1	Salmonella enterica serovar Derby	broth microdilution	clinical isolate RKI-No 436/14	–	–	MIC	> 16 µg/mL

For quick reference, copied from above:
Compound	target or system	test	test system	setting	how to read	measurement	result
COC(=O)Nc1c(N)nc(-c2nn(Cc3ccccc3F)c3ncc(F)cc23)nc1N	–	–	humans, plasma	10 mg once daily, phase I DDI study, together with: warfarin	–	Cmax at steady state	360 ng/mL
O=C[C@@H](O)[C@@H](O)[C@H](O)[C@H](O)COP(=O)(O)O	uncharacterized protein (Bacteroides thetaiotaomicron, UniProt Q8A183)	activator, phosphate release	–	concentration not given, together with: Mg2+	–	phosphatase activity	active
